Measurements from different studies.
Parts stem from different laboratories: compare values within a part only. Positions count from the first letter of the parent shown.

Block 1
Target: Interferon regulatory factor 3, full length, phosphomimetic (IRF3, Homo sapiens, UniProt Q14653, residues 1-427, S386D/S396D/S398D/S402D/T404D/S405D)
UniProt Q14653, sequence (whole entry, unmodified, looked up): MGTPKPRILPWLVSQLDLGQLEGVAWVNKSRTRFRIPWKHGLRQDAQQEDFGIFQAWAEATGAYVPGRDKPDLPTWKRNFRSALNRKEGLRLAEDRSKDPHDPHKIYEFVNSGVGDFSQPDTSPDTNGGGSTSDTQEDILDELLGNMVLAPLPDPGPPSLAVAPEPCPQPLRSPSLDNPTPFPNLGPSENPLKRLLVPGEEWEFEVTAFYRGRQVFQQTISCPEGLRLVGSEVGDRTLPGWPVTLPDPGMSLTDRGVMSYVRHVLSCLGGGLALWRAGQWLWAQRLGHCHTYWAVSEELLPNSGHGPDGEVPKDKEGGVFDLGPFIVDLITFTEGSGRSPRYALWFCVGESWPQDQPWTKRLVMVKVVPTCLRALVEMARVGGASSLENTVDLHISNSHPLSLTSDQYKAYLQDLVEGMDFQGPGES
Method: protein-binding microarray
Molecule type: double-stranded DNA, one strand shown
Matrix: in vitro
Concentration: 2540 nM top
Notes: 60-bp whole probe
Together with: salmon DNA 0.4 mg/ml
Baseline: random background probes
Reading: higher = stronger binding
Constant ends, left off below: GCCTAGCAC … GTCTTGATTCGCTTGACGCTGCTG
Sequence	fitted relative affinity [z-score]
GAAGAACTGAGTCTCGAGACGTGCTAG	-0.609
GACGACCTGGGGACTGGAGACGTGCTA	-0.906
TTAGGTCTCCTTTTCCTTAAGTGCTAG	5.41
TTAGGCCTGGGGACTGGGTTAGTGCTA	-1.34
GACGGACTGGGGCTTCGGGACGTGCTA	-1.15
CATTTTAGTAGTTTCTAAAAGTGCTAG	3.17
TTAGGTTTCCTTAGCCTTTAGTGCTAG	4.1
GATGGTATCCTTTTCCTGACGTGCTAG	7.81
TTAGGAATCGGGACTGGGTTAGTGCTA	-0.478
GGGATAAGGACAGACACCATGTGCTAG	-0.17
GCCGGTATCCTTATCCTGACGTGCTAG	5.39
TTAGGTATCGGGTATCGATTAGTGCTA	1.69
GTAGATCTCAGTTTCGATTAGTGCTAG	3.82
CAGTTTATTTATTTTTACATGTGCTAG	1.58
GACGGACTGGGGACTGGGGAAGTGCTA	-0.948
TTAGATCTCAGAGTGGATTAGTGCTAG	-0.333
TTAGTTTTCCTTTTCCTTTAGTGCTAG	9.59
TTAGAGCTCAGTCTCGATTAGTGCTAG	0.289
TTAGAACTAGGGTTTCGATTAGTGCTA	1.45
TTAGAACTGGGGACTGGATTTGTGCTA	-0.855
GACGAACTGAGTCTCGCGACGTGCTAG	-0.363

Block 2
Target: ABI1, truncated, D143A, DHFR fusion (Arabidopsis thaliana)
Method: DHFR PCA, deep sequencing
Matrix: yeast
Notes: methotrexate growth selection, single substitutions
Together with: (+)-ABA 2500 µM
Baseline: wild-type fitted maximum
Reading: higher = stronger binding
Parent: PYL1, truncated, DHFR fusion (Arabidopsis thaliana); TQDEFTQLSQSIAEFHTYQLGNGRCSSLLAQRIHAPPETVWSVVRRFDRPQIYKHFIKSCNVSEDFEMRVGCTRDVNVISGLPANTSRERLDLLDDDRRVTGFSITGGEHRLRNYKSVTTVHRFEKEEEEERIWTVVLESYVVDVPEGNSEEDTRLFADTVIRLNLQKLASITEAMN
Change	relative binding score [%]
S87L	10.5
F66K	99.6
G108S	81.8
K168E	90.6
V142K	83.3
S63H	95
R45P	-6.08
S171H	97.2
P146Y	72.9
E129P	106
R163S	85.3
G23W	91.8
S80D	71.2
R111V	56.5
V137W	6.11

Block 3
Target: ATF1, bZIP domain (human)
Method: DHFR protein complementation
Matrix: yeast
Notes: single substitutions, most at no-binding floor
Baseline: wild-type JUN-FOS pair
Reading: higher = stronger binding
Parent: JUN, bZIP domain (human); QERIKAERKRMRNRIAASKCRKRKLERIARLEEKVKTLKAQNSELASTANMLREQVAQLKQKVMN; partner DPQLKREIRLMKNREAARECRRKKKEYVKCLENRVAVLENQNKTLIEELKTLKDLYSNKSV
Change	binding fitness [natural log]
L52I	-1.53
R30C	-1.56
E32H	-1.45
N42H	-1.5
E44C	-1.58
V35G	-1.53
T48G	-1.51
A57L	-1.49
S43I	-1.44
A46R	-1.48
R30V	-1.45
E44R	-1.49
A49F	-1.53
E54Q	-1.53
R30W	-1.46
E54N	-1.5

Block 4
Target: Ras GTPase-activating protein-binding protein 1, RRM domain (G3BP1, Homo sapiens, UniProt Q13283)
UniProt Q13283, sequence (whole entry, looked up): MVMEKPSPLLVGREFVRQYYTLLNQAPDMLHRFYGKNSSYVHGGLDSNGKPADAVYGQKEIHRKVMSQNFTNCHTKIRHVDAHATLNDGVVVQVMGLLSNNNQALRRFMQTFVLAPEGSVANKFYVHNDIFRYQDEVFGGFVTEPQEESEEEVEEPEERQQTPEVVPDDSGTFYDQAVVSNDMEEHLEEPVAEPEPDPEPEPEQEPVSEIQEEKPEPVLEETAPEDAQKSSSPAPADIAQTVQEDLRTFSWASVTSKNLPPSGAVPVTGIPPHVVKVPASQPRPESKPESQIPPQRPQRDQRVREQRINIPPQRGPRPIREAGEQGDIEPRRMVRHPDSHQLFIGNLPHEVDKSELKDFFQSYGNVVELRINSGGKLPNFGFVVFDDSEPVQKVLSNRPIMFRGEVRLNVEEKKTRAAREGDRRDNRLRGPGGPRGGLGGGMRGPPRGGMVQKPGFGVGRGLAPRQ
Method: RNA Bind-n-Seq
Molecule type: RNA
Matrix: in vitro
Concentration: 1 µM
Notes: whole 134-nt RNA, ends assumed
Together with: 150 mM KCl
Baseline: input library
Reading: higher = stronger binding
Constant ends, left off below: GGGAGUUCUACAGUCCGACGAUC … UGGAAUUCUCGGGUGUCAAGG
Sequence	log2 enrichment
GUCCUGUGCUACACAUCGUAUGUACCGAAUCGGGAGGGAAAAAAAGGGUUUUUUUGGGAAAGUAUUAUGUUACGCCGUUCGGAUCUGCAC	0.219
AGUCCUGUGCUACACAUCGUAUGUACCGAAUCGGGGUUUGGGGUUUUUGGGGAGGGGAAAGUAUUAUGUUACGCCGUUCGGAUCUGCACU	1.16
UGGCCCUGGUGGCAUGCGGGGAGGAAGAGGUGGCCUCAUGGAUCGUGGUGGUCCCGGUGGAAUGUUCAGAGUUGGCCGUGGUGGAGACAG	1.83
UAACUUUAGAGGAGGAUCUGAUGGAUAUGGCAGUGGACGUGGAUUUGGGGAUGGCUAUAAUGGGUAUGGAGGAGGACCCGGAGGUGGCAA	-0.374
CAAGUCCUGUGCUACACAUCGUAUGUACCGAAUCGGUUUUUUUGGUGGAAAAAGGAAAGUAUUAUGUUACGCCGUUCGGAUCUGCACUUC	-0.287
UAACUUUAGAGGAGGAUCUGAUGGAUUUGGCAGUGGACGUGGAUUUGGGGAUGGCUAUAAUGGGUAUGGAGGAGGACCUGGAGGUGGCAA	-0.738
CCUGUGCUACACAUCGUAUGUACCGAAUCGGGGAGGGGAAAAAAAGGGGUUUUUUUGGGGAAAGUAUUAUGUUACGCCGUUCGGAUCUGC	0.572
UGGCCCUGGUGGCAUGCGGGGAGGAAGAGGUGGCCUCAUGGAUCGUGGUGGUCCCGGUGGAAUGUUCGGAGGUGGCCGUGGUGGAGACAG	1.76
UCAAGUCCUGUGCUACACAUCGUAUGUACCGAAUCGGGGAAGGGGAAGGGAAGGGAAAGUAUUAUGUUACGCCGUUCGGAUCUGCACUUC	0.881
UCCUGUGCUACACAUCGUAUGUACCGAAUCAAACCCCCAAACCCCCCCAAACCCCCAAAAAAGUAUUAUGUUACGCCGUUCGGAUCUGCA	-0.119
AGUCCUGUGCUACACAUCGUAUGUACCGAAUCAAAUUUAAAUUUUUAAAUUUUUAAAAAAGUAUUAUGUUACGCCGUUCGGAUCUGCACU	-0.828
AGUCCUGUGCUACACAUCGUAUGUACCGAAUCGGGGUUUUGGGGUUUUGGUUUUGGGGAAAGUAUUAUGUUACGCCGUUCGGAUCUGCAC	-0.0517
CUCAAGUCCUGUGCUACACAUCGUAUGUACCGAAUCGGGGUGGGGUGGGUGGGAAAGUAUUAUGUUACGCCGUUCGGAUCUGCACUUCCA	0.00243
AGUCCUGUGCUACACAUCGUAUGUACCGAAUCGGGGAGGGGAAAGGGGAAAAAGGGGAAAGUAUUAUGUUACGCCGUUCGGAUCUGCACU	0.871

Block 5
Target: CCND3, cyclin fold, Cln2 fusion (human)
Method: yeast growth competition, sequencing
Matrix: yeast
Notes: weak parent motif
Baseline: not given
Reading: higher = stronger binding
Parent: NPAT docking peptide (human); PCHRRVLCFDSTT; partner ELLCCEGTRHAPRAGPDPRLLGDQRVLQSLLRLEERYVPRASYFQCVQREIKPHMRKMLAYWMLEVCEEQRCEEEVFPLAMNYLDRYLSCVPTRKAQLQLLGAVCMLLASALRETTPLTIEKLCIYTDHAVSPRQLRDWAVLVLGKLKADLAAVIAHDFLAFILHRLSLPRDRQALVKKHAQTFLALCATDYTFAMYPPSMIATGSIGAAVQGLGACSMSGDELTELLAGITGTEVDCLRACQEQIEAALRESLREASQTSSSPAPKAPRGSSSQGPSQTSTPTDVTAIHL
Change	normalised enrichment score
PCHRRALCFDSTT [V6A]	0.114
PCHRRVACFDSTT [L7A]	0.0982
ACHRRVLCFDSTT [P1A]	0.111
PCHRKVLCFDSTT [R5K]	0.218
PCHRRVLCADSTT [F9A]	0.0552
PAHRRVLCFDSTT [C2A]	0.17
PCHRKVLCLDSTT [R5K F9L]	0.211
PCHARVLCFDSTT [R4A]	0.117
PCHRAVLCFDSTT [R5A]	0.118
PCHRAVACFDSTT [R5A L7A]	0.086

Further values, each from its own experiment
Molecule	target	assay	system	conditions	scale	endpoint	result
PhoQ, residues 284 288 289 292 302 303 NLMGRA	PhoP, residues 12 14 15 18 19 NMSSL (Escherichia coli, UniProt P23836)	Sort-seq, refers to: YFP reporter	E. coli	PhoQ-PhoP variant library, together with: 10 µM Mg2+	baseline: high Mg2+ state, higher = stronger signaling	fold induction	4.31
